Assay results from different studies.
Protocols differ between the studies behind these lines. ± gives the spread as reported.
HTR1F: 5-hydroxytryptamine receptor 1F (HTR1F, Homo sapiens, UniProt P30939)
UniProt P30939, sequence (whole entry, looked up): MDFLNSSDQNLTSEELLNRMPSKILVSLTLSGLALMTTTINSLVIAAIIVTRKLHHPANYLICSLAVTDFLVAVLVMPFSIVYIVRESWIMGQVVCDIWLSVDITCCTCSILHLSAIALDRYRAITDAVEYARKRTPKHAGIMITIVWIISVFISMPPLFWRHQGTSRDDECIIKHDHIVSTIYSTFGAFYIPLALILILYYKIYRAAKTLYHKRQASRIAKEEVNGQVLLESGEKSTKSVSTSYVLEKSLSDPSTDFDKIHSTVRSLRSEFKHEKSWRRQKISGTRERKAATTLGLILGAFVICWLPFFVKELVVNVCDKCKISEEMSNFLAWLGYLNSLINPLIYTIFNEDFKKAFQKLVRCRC
folP: Dihydropteroate synthase (folP, Bacteria, UniProt P0AC13)
UniProt P0AC13, sequence (whole entry, looked up): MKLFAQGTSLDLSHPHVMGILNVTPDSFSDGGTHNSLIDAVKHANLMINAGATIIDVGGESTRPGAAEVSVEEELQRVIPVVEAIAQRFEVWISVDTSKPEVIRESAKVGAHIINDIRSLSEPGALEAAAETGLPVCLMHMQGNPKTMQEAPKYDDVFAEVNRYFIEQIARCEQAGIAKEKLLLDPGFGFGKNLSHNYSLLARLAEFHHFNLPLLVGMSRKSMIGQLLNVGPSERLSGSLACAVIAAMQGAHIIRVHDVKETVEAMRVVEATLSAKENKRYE
UniProt O60603, sequence (whole entry, looked up): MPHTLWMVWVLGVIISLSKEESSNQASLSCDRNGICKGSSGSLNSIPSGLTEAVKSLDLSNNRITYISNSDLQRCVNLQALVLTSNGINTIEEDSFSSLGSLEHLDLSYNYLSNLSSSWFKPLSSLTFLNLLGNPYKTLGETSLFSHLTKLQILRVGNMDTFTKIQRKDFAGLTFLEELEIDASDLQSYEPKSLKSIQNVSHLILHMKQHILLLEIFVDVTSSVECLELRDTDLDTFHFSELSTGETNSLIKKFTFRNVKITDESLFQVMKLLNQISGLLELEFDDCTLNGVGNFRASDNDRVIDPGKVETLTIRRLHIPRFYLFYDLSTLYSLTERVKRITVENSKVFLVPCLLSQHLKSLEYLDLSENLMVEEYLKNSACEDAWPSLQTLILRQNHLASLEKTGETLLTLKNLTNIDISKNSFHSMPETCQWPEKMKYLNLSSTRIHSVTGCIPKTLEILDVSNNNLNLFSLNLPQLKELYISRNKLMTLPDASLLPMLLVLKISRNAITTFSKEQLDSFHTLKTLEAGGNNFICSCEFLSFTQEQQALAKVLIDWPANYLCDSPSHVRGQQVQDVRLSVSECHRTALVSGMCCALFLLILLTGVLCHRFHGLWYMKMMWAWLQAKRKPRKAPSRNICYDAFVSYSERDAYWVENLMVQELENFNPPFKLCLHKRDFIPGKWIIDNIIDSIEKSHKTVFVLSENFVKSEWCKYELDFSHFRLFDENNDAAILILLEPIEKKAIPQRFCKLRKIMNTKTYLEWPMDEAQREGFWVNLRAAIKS
UniProt P23975, sequence (whole entry, looked up): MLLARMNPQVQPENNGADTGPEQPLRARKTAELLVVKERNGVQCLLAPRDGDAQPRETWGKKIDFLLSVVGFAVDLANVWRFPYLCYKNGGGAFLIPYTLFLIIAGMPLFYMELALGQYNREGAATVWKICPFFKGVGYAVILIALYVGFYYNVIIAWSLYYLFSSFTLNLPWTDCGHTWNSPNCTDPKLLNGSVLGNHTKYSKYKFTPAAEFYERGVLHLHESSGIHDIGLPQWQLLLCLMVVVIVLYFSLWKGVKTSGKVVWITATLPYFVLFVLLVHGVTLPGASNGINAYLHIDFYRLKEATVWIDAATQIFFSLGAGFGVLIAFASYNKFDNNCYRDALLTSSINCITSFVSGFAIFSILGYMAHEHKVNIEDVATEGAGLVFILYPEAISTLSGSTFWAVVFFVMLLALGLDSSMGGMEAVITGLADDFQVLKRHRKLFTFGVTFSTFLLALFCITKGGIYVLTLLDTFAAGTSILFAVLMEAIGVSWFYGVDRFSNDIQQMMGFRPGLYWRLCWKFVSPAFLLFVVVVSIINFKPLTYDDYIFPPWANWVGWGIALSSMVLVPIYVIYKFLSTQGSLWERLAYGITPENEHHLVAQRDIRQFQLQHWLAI
UniProt Q9UPE1, sequence (whole entry, looked up): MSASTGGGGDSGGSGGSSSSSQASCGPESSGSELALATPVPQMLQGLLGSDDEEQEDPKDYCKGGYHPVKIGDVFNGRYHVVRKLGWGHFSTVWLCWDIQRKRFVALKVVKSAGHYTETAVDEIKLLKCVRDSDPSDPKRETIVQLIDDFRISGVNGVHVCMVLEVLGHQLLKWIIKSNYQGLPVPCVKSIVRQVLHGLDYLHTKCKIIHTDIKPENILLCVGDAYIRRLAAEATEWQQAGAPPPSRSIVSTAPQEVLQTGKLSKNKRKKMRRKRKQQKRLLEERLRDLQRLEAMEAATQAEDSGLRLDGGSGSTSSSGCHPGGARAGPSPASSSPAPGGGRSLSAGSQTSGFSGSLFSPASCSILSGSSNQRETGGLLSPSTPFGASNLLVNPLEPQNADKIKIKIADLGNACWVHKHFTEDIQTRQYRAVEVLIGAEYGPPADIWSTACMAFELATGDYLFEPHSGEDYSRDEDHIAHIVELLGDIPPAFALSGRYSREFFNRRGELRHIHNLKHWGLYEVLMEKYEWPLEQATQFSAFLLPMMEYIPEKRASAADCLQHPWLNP
UniProt P35030, sequence (whole entry, unmodified, looked up): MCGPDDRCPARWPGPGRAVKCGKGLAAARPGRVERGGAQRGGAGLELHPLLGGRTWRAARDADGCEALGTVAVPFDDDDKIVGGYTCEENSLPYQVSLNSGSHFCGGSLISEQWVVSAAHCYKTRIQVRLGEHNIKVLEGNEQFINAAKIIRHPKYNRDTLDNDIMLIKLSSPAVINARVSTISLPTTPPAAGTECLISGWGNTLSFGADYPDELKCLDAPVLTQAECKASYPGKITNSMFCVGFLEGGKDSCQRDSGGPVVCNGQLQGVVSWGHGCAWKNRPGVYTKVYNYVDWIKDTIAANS
UniProt O75762, sequence (whole entry, unmodified, looked up): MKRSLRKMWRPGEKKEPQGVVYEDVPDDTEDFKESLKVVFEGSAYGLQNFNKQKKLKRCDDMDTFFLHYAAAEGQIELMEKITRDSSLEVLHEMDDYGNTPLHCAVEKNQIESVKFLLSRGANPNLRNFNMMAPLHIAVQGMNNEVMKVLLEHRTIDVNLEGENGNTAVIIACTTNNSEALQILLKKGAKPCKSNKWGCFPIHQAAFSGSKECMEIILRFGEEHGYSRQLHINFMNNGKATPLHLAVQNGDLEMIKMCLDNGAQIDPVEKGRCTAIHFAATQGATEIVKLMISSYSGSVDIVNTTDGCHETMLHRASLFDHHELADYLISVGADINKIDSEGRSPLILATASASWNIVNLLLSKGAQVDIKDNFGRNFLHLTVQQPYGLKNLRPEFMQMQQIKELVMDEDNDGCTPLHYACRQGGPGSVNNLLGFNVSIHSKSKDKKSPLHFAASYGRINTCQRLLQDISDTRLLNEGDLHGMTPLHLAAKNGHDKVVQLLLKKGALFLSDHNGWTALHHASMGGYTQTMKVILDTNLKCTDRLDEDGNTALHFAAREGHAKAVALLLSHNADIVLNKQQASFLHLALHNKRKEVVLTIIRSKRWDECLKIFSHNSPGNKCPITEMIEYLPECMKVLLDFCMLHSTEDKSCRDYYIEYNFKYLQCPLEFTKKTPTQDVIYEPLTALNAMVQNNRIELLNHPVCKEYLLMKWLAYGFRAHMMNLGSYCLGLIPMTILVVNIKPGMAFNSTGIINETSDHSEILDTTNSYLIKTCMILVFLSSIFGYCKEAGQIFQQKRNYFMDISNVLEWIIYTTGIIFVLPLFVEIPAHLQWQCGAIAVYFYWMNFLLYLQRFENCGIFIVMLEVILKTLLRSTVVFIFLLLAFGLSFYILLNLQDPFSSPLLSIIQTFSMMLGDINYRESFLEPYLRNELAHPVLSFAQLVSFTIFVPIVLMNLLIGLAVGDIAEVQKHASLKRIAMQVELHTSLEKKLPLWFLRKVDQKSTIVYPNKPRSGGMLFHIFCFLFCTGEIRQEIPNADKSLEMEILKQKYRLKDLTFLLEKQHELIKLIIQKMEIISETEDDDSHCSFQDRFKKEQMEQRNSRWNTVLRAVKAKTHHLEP
UniProt Q704Y3, sequence (whole entry, unmodified, looked up): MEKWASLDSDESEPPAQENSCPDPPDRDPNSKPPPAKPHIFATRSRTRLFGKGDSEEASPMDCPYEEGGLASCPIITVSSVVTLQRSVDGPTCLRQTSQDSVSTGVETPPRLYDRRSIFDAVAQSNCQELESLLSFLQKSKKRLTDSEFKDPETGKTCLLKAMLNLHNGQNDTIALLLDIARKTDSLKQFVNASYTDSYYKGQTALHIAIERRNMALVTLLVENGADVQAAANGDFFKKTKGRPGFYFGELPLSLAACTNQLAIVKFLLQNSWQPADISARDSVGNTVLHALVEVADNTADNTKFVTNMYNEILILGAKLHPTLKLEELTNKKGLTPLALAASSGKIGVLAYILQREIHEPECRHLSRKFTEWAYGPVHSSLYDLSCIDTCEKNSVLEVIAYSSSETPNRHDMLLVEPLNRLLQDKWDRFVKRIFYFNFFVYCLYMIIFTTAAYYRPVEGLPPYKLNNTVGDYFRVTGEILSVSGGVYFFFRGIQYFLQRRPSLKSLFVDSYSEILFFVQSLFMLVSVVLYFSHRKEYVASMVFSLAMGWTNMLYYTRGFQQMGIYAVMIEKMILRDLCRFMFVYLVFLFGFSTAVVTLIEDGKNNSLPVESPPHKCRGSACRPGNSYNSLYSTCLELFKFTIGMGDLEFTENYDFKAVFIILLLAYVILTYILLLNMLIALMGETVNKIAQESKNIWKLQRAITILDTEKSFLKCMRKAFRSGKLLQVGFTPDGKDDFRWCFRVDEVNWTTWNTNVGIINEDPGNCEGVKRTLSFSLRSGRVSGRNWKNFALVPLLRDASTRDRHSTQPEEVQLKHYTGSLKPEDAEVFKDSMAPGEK

| SMILES | tested on | test | system | setting | how to read | quantity | value |
| --- | --- | --- | --- | --- | --- | --- | --- |
| CNC(=O)C12CC1C(n1cnc3c(NC)nc(C#Cc4ccccc4Cl)nc31)C(O)C2O (stereo not drawn) | SLC6A2 (Homo sapiens, UniProt P23975) | ligand displacement, radioligand |  |  |  | EC50 | 9600 nM |
| Nc1ncc(-c2cc(-c3cnn(CC(F)(F)F)c3)ncc2F)nc1C(=O)NC1CNCC(F)C1 (stereo not drawn) | TYRO3 | KINOMEscan |  | 1 µM | relative to: DMSO control | remaining binding | 38% |
| C=C(NC(=O)c1csc(-c2nc3c(cc2O)-c2nc(cs2)C(=O)NC(C(C)O)C(=O)NC(=C(C)OC)c2nc(cs2)C(=O)NC2c4nc(cs4)C(=O)NC(COC(=O)c4c5c6c(cccc6n4O)COC(=O)C(OC4CC(C)(O)C(N(C)C)C(C)O4)C2OC5)c2nc-3cs2)n1)C(N)=O (stereo not drawn) |  |  | cynomolgus monkey, plasma | intravenous, infusion |  | half-life | 5.5 h |
| Cc1nn(-c2cccc(N)c2)c(=O)c2cnc(Nc3ccc(N4CCNCC4)cc3)nc12 | SRPK3 (Homo sapiens, UniProt Q9UPE1) | kinase activity, inhibitor, SelectScreen kinase profiling |  |  |  | IC50 | > 10000 nM |
| CN1CCN(C2=Nc3ccccc3Nc3ccccc32)CC1 | HTR1F | G protein activation, agonist, BRET |  |  |  | EC50 | 195 nM |
| CSCC[C@H](NC(=O)[C@H](CC(C)C)NC(=O)CNC(=O)[C@H](Cc1ccccc1)NC(=O)[C@H](Cc1ccccc1)NC(=O)[C@@H](N)CCC(N)=O)C(N)=O | TACR1 (Homo sapiens, UniProt P25103, H108A) | agonist |  | concentration not given |  | EC50 | 100 nM |
| CCCCCCCCCCCCCCCC(=O)OCC(CSC[C@H](N)C(=O)N[C@@H](CO)C(=O)N[C@@H](CCCCN)C(=O)N[C@@H](CCCCN)C(=O)N[C@@H](CCCCN)C(=O)N[C@@H](CCCCN)C(=O)O)OC(=O)CCCCCCCCCCCCCCC (stereo partly drawn) | TLR2/TLR6 (Homo sapiens, UniProt O60603+Q9Y2C9) | reporter gene, agonist | HEK-Blue hTLR2/6 cells |  |  | EC50 | 0.19 ± 0.028 nM |
| COC1CN([C@H]2CC[C@H]([C@@]3(C)Oc4c(Cl)cc(C(=O)NCc5c(SC)cc(C)[nH]c5=O)c(C)c4O3)CC2)C1 |  | RNA-seq, measured: TJP2 mouse homolog | mouse, HT-1376 xenograft, whole blood | dose not given | relative to: vehicle | log2 fold change | 0.228 |
| CC(C)OCCOCc1ccc(OCC(O)CN(N=O)C(C)C)cc1 (stereo not drawn) | Salmonella typhimurium | Ames test | TA1535 | 158 µg/plate, without metabolic activation | relative to: solvent control | revertant fold increase | 0.8 fold |
| Cc1nc(-c2c[nH]c(C(=O)Nc3ncccc3O)c2)cs1 | Trypsin-3 (Homo sapiens, UniProt P35030, W279Q) | enzyme activity, inhibitor |  | mixed inhibition model |  | Ki | 239000 ± 4300 nM |
| CCc1cc(O)cc2c(/C=N/NC(=N)NCCc3ccc(Cl)cc3)c[nH]c12 | RXFP4 (Homo sapiens, UniProt Q8TDU9, V122S) | agonist |  |  |  | EC50 | 18.6 nM |
| CCCCCCCC/C=C\CCCCCCCC(=O)NCCO | Trpv1 (Mus musculus, UniProt Q704Y3, S511A) | ion current, agonist, whole-cell patch clamp |  | 24 °C, S511A, +80 mV |  | EC50 | 370 ± 130 nM |
| COC(=O)CC(C)c1n[nH]c2nc(N)[nH]c(=O)c2c1=O (stereo not drawn) | folP | thermal stabilisation, lysate HiBiT CETSA |  | 63 °C, tested 0.01 to 200 µM |  | EC50 | > 200000 nM |
| COc1ccc(NC(=O)C2CC(C)CCC2C(C)C)cc1 (stereo not drawn) | TRPM8 (Homo sapiens, UniProt Q7Z2W7) | ion current, agonist, automated patch clamp | HEK293T |  |  | EC50 | 4000 nM |
| O=C(NC[C@@H](Cc1ccc(F)cc1)N1CCC(O)(C(F)(F)F)CC1)C1(c2ccc(Cl)cc2)CCCC1 | TRPA1 (Homo sapiens, UniProt O75762, T874N) |  |  |  |  | EC50 | 17000 nM |
| C=CC(=O)Nc1cccc(Cn2ncc3cnc(Nc4cnn(CCOC)c4)nc32)c1 | ZAK human | binding, KINOMEscan |  | 100 nM | lower = stronger binding | percent of control | 99% |
| O=C(Cc1ccc(OCc2ccccc2)cc1)NC1(C(=O)O)CCN(C(=O)c2ccc(-c3cccc(Cl)c3)cc2)CC1 | LPAR4 (Homo sapiens, UniProt Q99677) | cAMP, agonist, luciferase |  |  |  | EC50 | > 10000 nM |
| CC(C)Oc1cc(Cl)ccc1CNc1cc(-c2ccccc2)nc2ncnn12 | GPR3 (Homo sapiens, UniProt P46089, L159A) | cAMP level, agonist, cAMP GloSensor |  | L159A mutant |  | EC50 | 358 nM |
| CC(C)C[C@H](NC(=O)[C@@H](CCCCNC(=O)[C@@H](Cc1ccccc1)NC(=O)CCCCCNC(=O)CN1CCN(CC(=O)O)CCN(CC(=O)O)CCN(CC(=O)O)CC1)NC(=O)[C@H](Cc1ccc(O)cc1)NC(=O)[C@H](CO)NC(=O)[C@H](Cc1c[nH]c2ccccc12)NC(=O)[C@H](Cc1c[nH]cn1)NC(=O)[C@@H]1CCC(=O)N1)C(=O)N[C@@H](CCCNC(=N)N)C(=O)N1CCC[C@H]1C(=O)NCC(N)=O [indium-111 labelled] |  |  | athymic nude mouse, female, intestines | intravenous, 0.037 MBq, 4 h |  | tissue uptake | 4.59 ± 2.17 %ID |
| Cn1c(=O)n(C2CCC(=O)NC2=O)c2ccc(C3CCN(CC(=O)Nc4cccc(CS(=O)(=O)N5CC[C@H](Nc6cccc(-c7sc(C(=O)O)c(OCC(=O)O)c7Cl)c6)CC5(C)C)c4)CC3)cc21 (stereo partly drawn) | PTPN9 (Homo sapiens, UniProt P43378) | phosphatase activity |  | together with: DiFMUP substrate |  | EC50 | > 10000 nM |
| Cc1ncsc1-c1ccc(C(C)NC(=O)C2CC(O)CN2C(=O)C(NC(=O)CCCCCCCCCCN2CCCC(Nc3ncc(Cl)c(Nc4ccccc4S(=O)(=O)C(C)C)n3)C2)C(C)(C)C)cc1 (stereo not drawn) | 22Rv1 | RNA-seq, measured: ZNF563 mRNA |  | concentration not given | relative to: DMSO | log2 fold change | -2.48 |
| CCOC(=O)C12CC1C(n1cnc3c(NC)nc(C#Cc4ccc(Br)s4)nc31)C(O)C2O (stereo not drawn) | SLC6A3 (Homo sapiens, UniProt Q01959) | ligand displacement, radioligand |  |  |  | EC50 | 160 nM |
| COc1cc(C2C(NC(=O)c3ccc(NC(=O)OC(C)(C)C)cc3)(C(=O)O)C(c3ccc(OC(=O)c4cccs4)c(OC)c3)C2(NC(=O)c2ccc(NC(=O)OC(C)(C)C)cc2)C(=O)O)ccc1OC(=O)c1cccs1 (stereo not drawn) | GLP1R (Homo sapiens, UniProt P43220, Y152A) | cAMP, agonist |  |  |  | EC50 | 151 nM |
| CSCC[C@H](NC(=O)[C@H](CCCN=C(N)N)NC(=O)[C@H](Cc1ccc(O)cc1)NC(=O)[C@@H]1CCCN1C(=O)CNC(=O)[C@H](CCC(=O)O)NC(=O)[C@H](CC(=O)O)NC(=O)[C@H](CCCCN)NC(=O)[C@H](CCCCN)NC(=O)[C@H](CCC(=O)O)NC(=O)[C@H](C)N)C(=O)N[C@@H](CCC(=O)O)C(=O)N[C@@H](Cc1c[nH]cn1)C(=O)N[C@@H](Cc1ccccc1)C(=O)N[C@@H](CCCN=C(N)N)C(=O)N[C@@H](Cc1c[nH]c2ccccc12)C(=O)NCC(=O)N[C@@H](CO)C(=O)N1CCC[C@H]1C(=O)N1CCC[C@H]1C(=O)N[C@@H](CCCCN)C(=O)N[C@@H](CC(=O)O)C(=O)O | MC3R (Homo sapiens, UniProt P41968) | cAMP, agonist |  |  |  | EC50 | 0.31 nM |
| O=C(O)CCCCCC[C@H]1C(=O)NC(=O)N1CC[C@@H](O)C1CCCCC1 | PTGDR (Homo sapiens, UniProt Q13258) | agonist |  |  |  | EC50 | 0.912 nM |
| CSc1ccc2c(c1)C(N1CCN(C)CC1)Cc1ccccc1S2 (stereo not drawn) | HTR1F | G protein activation, agonist, BRET |  |  |  | EC50 | 1140 nM |
| CCN(CC)CC#CCNc1ccnc2cc(Cl)ccc12 | Salmonella typhimurium | mini-Ames test | TA1535 | 500.0 µg/well, with rat liver S9 |  | revertants per well | 4 |
| COc1ccc(C(=O)c2c(C(=O)NCCCN(C)C)oc3ccc(Cl)cc3c2=O)cc1OC | GHSR (Homo sapiens, UniProt Q92847) | beta-arrestin-2 recruitment, NanoBiT | HEK293T |  |  | EC50 | 141 nM |
| CC(CCC(=O)NCCS(=O)(=O)O)C1CCC2C3CCC4CC(OS(=O)(=O)O)CCC4(C)C3CCC12C (stereo not drawn) | GPR39 (Homo sapiens, UniProt O43194) | calcium flux, agonist, FLIPR |  | together with: Zn2+ 4 µM |  | EC50 | 9600 ± 6300 nM |
| COC(=O)CC(C)c1nn(C)c2nc(N)[nH]c(=O)c2c1=O (stereo not drawn) | folP | thermal stabilisation, lysate HiBiT CETSA |  | 63 °C, tested 0.01 to 200 µM |  | EC50 | > 200000 nM |

Some of these lines once more:
| SMILES | tested on | test | system | setting | how to read | quantity | value |
| --- | --- | --- | --- | --- | --- | --- | --- |
| CNC(=O)C12CC1C(n1cnc3c(NC)nc(C#Cc4ccccc4Cl)nc31)C(O)C2O (stereo not drawn) | SLC6A2 (Homo sapiens, UniProt P23975) | ligand displacement, radioligand |  |  |  | EC50 | 9600 nM |
| Nc1ncc(-c2cc(-c3cnn(CC(F)(F)F)c3)ncc2F)nc1C(=O)NC1CNCC(F)C1 (stereo not drawn) | TYRO3 | KINOMEscan |  | 1 µM | relative to: DMSO control | remaining binding | 38% |
